Results gathered from unrelated publications.
Each line is one published result; not all experiments were run side by side. Several values in a cell are separate wells, animals, samples, runs or records. ± marks the error that the study gave.

| Structure (SMILES) | cell line | test | setting | how to read | quantity | result |
| --- | --- | --- | --- | --- | --- | --- |
| Cc1cn([C@H]2C[C@H](O)[C@@H](CO)O2)c(=O)nc1N | HBL-1 |  | 0.1 µM, 120 h |  | viability | 125% |
| CC/C(=N\NC(=O)NCc1cccc(O)c1)c1ccc(O)c(C)c1O | SK-OV-3 | ATP | 10 µM, 4 days, 3D U-bottom low-attachment | relative to: untreated | relative cell number | 247% |
| COc1c(Cl)cc2c([nH]c3cnccc32)c1NC(=O)c1cccnc1C | hiPSC cardiomyocytes | CellTiter-Glo | concentration not given, 24 h | relative to: vehicle | ATP level | 106% |
| COc1cc(/C=C/C(=O)N2CCC=CC2=O)cc(OC)c1OC | MDA-MB-468 | qRT-PCR, item: BACE2 | 30 µM, 6 h | relative to: time zero | mRNA level | 75.8 ± 6.6% |
| CC(C)(C)OC(=O)Nc1ccc(-c2cc(C(=O)NCCCCCCC(=O)NO)no2)cc1 | HBL-1 |  | 0.5 µM, 120 h |  | viability | 0.19% |
| Cc1cc(Nc2ncc(Cl)c(Nc3ccccc3S(=O)(=O)C(C)C)n2)c(OC(C)C)cc1C1CCNCC1 | CLB-BAR | phosphoproteomics LC-MS/MS, item: STAM2 phosphorylation | 200 nM, 60 min | relative to: untreated | log2 fold change | -1.68 |
| CC(=O)Nc1ccc(C(=O)Nc2ccccc2N)cc1 | HBL-1 |  | 0.5 µM, 120 h |  | viability | 73.2% |
| Cn1cc(Nc2nccc(-c3ccc4c(c3)CN(C3COC3)CC[C@H]4NC(=O)c3cn(C(C)(C)C)nn3)n2)cn1 | mouse splenic B cells | item: ErbB signalling | 30 mg/kg, IgD-activated in vivo | relative to: vehicle, direction not given | pathway activation z-score | 2.89 |
| O=C(O)C=Cc1cc(Br)c(Br)c(Br)c1Br | HeLa expressing Ub(G76V)-GFP | Ub(G76V)-GFP degradation, cycloheximide chase | 12 µM |  | inhibition | 14% |
| N#CSc1cc(SC#N)c(N)nc1N | BT-12 | cell viability, MTT | 10 µM, 72 h |  | inhibition | 94.2% |
| COc1cnc2cccc(N3CCc4c(cc(Cn5ccnc5C)cc4-c4cn(C)nc4C(F)(F)F)C3=O)c2c1 | ML1 | cell growth, inhibitor | 120 h |  | EC50 | > 30000 nM |
| O=C(C[C@@H](C(F)F)n1ccc(F)n1)N1CCC(O)(Cn2cnc3c(cnn3-c3ccc(F)cc3)c2=O)CC1 | CHP-212 resistant cells (pooled) | annexin V-PI flow cytometry | 1 µM, 48 h |  | viable cells (annexin V-/PI-) | 86.5% and 87% and 81.6% |
| O=P(O)(O)C(O)(Cn1ccnc1)P(=O)(O)O | MDA-MB-231 | AlamarBlue | 1.9 µM, 72 h | relative to: control | viability | 102 ± 5% |
| CCn1cc(-c2cc(Cn3ccoc3=N)cc3c2CCN([C@@H](C)c2cc(OC)ccn2)C3=O)c(C(F)(F)F)n1 | KYSE-70 | cell growth, inhibitor | 120 h |  | EC50 | 650 nM |
| CCOC(=O)NCCCC(=O)NCCc1ccccc1 | HBL-1 |  | 0.5 µM, 120 h |  | viability | 130% |
| NC(=O)c1ccc(-c2nc(-c3ccc4c(c3)OCCO4)c(-c3ccccn3)[nH]2)cc1 | HeLa expressing Ub(G76V)-GFP | Ub(G76V)-GFP degradation, cycloheximide chase | 12 µM |  | inhibition | 6% |
| Cn1cc(-c2ccc(-c3cncc(Cl)c3N3CCC4(CCNC4=O)CC3)cc2)cn1 | COLO 205 | gene expression, microarray, item: TRAF1 mRNA | concentration not given, 6 h | relative to: untreated cells | log2 fold change | 2.2 |
| CN1CCc2c(c3ccccc3n2Cc2ccc(C(=O)NO)cc2)C1 | HBL-1 |  | 0.5 µM, 120 h |  | viability | 128% |
| CCS(=O)(=O)c1nc(C2CC2)cc(C(F)(F)F)n1 | HeLa Kyoto | RelA nuclear import, high content imaging | 0.05 µM, 3 h, with: 1 µM PMA, 60 min |  | cells with nuclear RelA | 68.6% and 89.6% |
| NC(=O)c1cccc(N)c1 | HBL-1 |  | 1 µM, 120 h |  | viability | 100% |
| CN(C)Cc1c(C(=O)NCCOc2ccc(C(=O)NO)cc2)oc2ccccc12 | BT-12 | cell viability, MTT | 10 µM, 72 h |  | inhibition | 90.6% |
| O=C(/C=C/c1ccc(O)cc1)c1ccc(O)cc1O | HBL-1 |  | 0.5 µM, 120 h |  | viability | 113% |
| Cc1cc(Nc2ncc(Cl)c(Nc3ccccc3S(=O)(=O)C(C)C)n2)c(OC(C)C)cc1C1CCNCC1 | BT-12 | cell viability, MTT | 10 µM, 72 h |  | inhibition | 93.9% |

Repeated from above:
| Structure (SMILES) | cell line | test | setting | how to read | quantity | result |
| --- | --- | --- | --- | --- | --- | --- |
| NC(=O)c1ccc(-c2nc(-c3ccc4c(c3)OCCO4)c(-c3ccccn3)[nH]2)cc1 | HeLa expressing Ub(G76V)-GFP | Ub(G76V)-GFP degradation, cycloheximide chase | 12 µM |  | inhibition | 6% |
| CC/C(=N\NC(=O)NCc1cccc(O)c1)c1ccc(O)c(C)c1O | SK-OV-3 | ATP | 10 µM, 4 days, 3D U-bottom low-attachment | relative to: untreated | relative cell number | 247% |
| Cc1cc(Nc2ncc(Cl)c(Nc3ccccc3S(=O)(=O)C(C)C)n2)c(OC(C)C)cc1C1CCNCC1 | CLB-BAR | phosphoproteomics LC-MS/MS, item: STAM2 phosphorylation | 200 nM, 60 min | relative to: untreated | log2 fold change | -1.68 |
| NC(=O)c1cccc(N)c1 | HBL-1 |  | 1 µM, 120 h |  | viability | 100% |
